Published values of several laboratories.
Compare with care: the assays were run in different laboratories. ± marks the error that the study gave.

For `CCN(CC)CCCC(C)Nc1c2ccc(Cl)cc2nc2ccc(OC)cc12` (stereo not shown), the CC50 was 7.63 µM (human cells; 48 (unit not given)).
Under apoptosis, `COc1cc(C=CC(=O)C=Cc2cc(OC)c(OC)c(OC)c2)cc(OC)c1OC` is recorded as “no effect” (acridine orange staining; zebrafish (Danio rerio) larvae; up to 25 µM, larvae at 96 hpf).
With `CC(=O)c1c(C)c2cnc(Nc3ccc(C4CCN(CCS(C)(=O)=O)CC4)cn3)nc2n(C2CCCC2)c1=O` the AUC(0-t) was 354 ng·h/mL (human, plasma; oral, 25 mg once daily, day 1, single dose).
`COc1ccc(-c2c(-c3ccc(C#N)c(F)c3)nc(N3CCC(N)CC3)n(C)c2=O)cc1F` — result for “treatment-related adverse event incidence”: 0% (item: Dysgeusia; relapsed/refractory marginal zone lymphoma patients; oral, 60 mg, any grade, dose expansion).
The alkaline phosphatase of `Clc1ccc(-c2ccccc2)cc1` is reported as 152 ± 46 U/L (Sprague-Dawley rats, female, serum; inhalation, 23 µg/rat, 0 h after exposure).
For `CCc1ccc(CC/C=C/c2ccc3c(c2)C(=O)CC3)cc1`, the HDW was 23.1 g/L (Sprague-Dawley rat, male; oral, 30 mg/kg/day, 14 days).
Under “grade 1 or 2 Myalgia”, `COc1cc2c(Oc3ccc4[nH]c(C)cc4c3F)ccnc2cc1OCC1(N)CC1` is recorded as 13.3% (paediatric recurrent refractory sarcoma; 8 mg/kg).
Under “dose fraction in skim milk”, `O=C(O)CNCP(=O)(O)O` is recorded as 99.1% (whole cow milk; 200 nM nominal).
Under “incidence of grade 3 or higher AEs”, `C[C@@H](NC(=O)N1C(=O)[C@H](Cc2ccnc(N)c2)[C@H]1C(=O)O)C1CCCCC1` is recorded as 0% (healthy adult Chinese volunteers; continuous intravenous infusion, 0.3 mg/kg/h, 5-day infusion, CTCAE 5.0 grading).
For `C[C@]1(O)C[C@@](N)(c2ccc(-c3nc4n(c3-c3ccccc3)COc3ccncc3-4)cc2)C1`, “patients with Hyperphosphatemia TEAE” read 0% (human, advanced or metastatic solid tumours; 24 mg intermittent, phase I dose escalation).
`COc1c(OCCCN2CCOCC2)ccc2c1N=C(NC(=O)c1cnc(N)nc1)N1CCN=C21` — result for “abdominal pain incidence”: 22% (patients with advanced malignancies; intravenous, dose not given, all grades, all cohorts, together with: gemcitabine).
`CO[C@H]1C[C@@H]2CC[C@@H](C)[C@@](O)(O2)C(=O)C(=O)N2CCCC[C@H]2C(=O)O[C@H]([C@H](C)C[C@@H]2CC[C@@H](OC(=O)NCCOCCOCCOCCOCCOCCOCCOCCOCCC(=O)N3CCc4cc(Cn5nc(-c6ccc7oc(N)nc7c6)c6c(N)ncnc65)ccc4C3)[C@H](OC)C2)C[C@@H](O)[C@H](C)/C=C(\C)[C@@H](O)[C@@H](OC)C(=O)[C@H](C)C[C@H](C)/C=C/C=C/C=C/1C`: “any TEAE incidence” 68.8% (phase 1 dose escalation; advanced solid tumour patients; intravenous, 8 mg weekly, grade ≥3).
`O=c1nc(NO)ccn1[C@@H]1O[C@H](CO)[C@@H](O)[C@H]1O` has a freeze-thaw stability of 97.8 ± 2.56% (rat maternal placenta dialysate; 1000 ng/mL, high concentration, three cycles, together with: molnupiravir 250 ng/mL).
